Results collected from several papers.
Every numbered part comes from another study and shows a few of its results, in no order. Changes are numbered by the printed parent chain.

Block 1
Target: RNA binding protein fox-1 homolog 2, RRM domain, GST-SBP tag (RBFOX2, Homo sapiens, UniProt O43251-10, residues 100-194)
Method: RNA Bind-n-Seq
Molecule type: RNA
Matrix: in vitro
Tested at: 365 nM
Notes: natural RNA segment, single round, ends assumed
Reference: no-protein control
Direction: higher = stronger binding
All sequences stand within: GGGAGUUCUACAGUCCGACGAUC … UGGAAUUCUCGGGUGCCAA
Construct (chain): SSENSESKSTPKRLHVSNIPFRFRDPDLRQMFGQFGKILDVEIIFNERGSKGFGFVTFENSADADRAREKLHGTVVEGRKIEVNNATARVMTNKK
`GAACCUAUUGAAAGGAAUUUGUUGUCACCUUCUUAACUAGAAUAGUUGUUGAAGGUACCGCUUAAGCCAUUUUUUUCUUAACAUCGGUGGCUCAGUUAAGGAAUGAGAAG` — result for “RBNS enrichment (R)”: 0.296.
For `CUUCAUAUGGACCAAGUGGCCACACACUGAAAAACCCGUAUAGCGACUCAGUGAAAUAAACAAGAGCCCCCAGUCAGAACUGUGAAACAGGGAAAUUUUGGGGUGGGAGU`, “RBNS enrichment (R)” read 0.384.
`CCUCCAGGGGGGACUCCUCCCCACUCCCUCAGCCCUGGGGCCCCCCUAUCCUAAGACUCGGAAAGGCCCACCCUGAGGUUCUAUUGCCUUCCUGGUGGUAUCAGCUUCCA`: “RBNS enrichment (R)” 0.466.
For `AUCUCCUUCCUGAGGAGCCGGGAGGCUGGACCAGUCCCGUCGUGCAGUCAGGUGGGCGGUGUGUCUUUCCAGAAGGUCACGUGGAAAUGUCUCGGGACUUGGGUCCCGGA`, “RBNS enrichment (R)” read 0.213.
`AAUUAUAGGUCCUCACUCUUGACAGGGCUGAGCAAACAGAAACUGUCCACCAGUGAUCUCAAGCAUGGCUUAGGGCUGGCAGGGACCUGAGCCCUCAUUUCACAAUGUGA`: “RBNS enrichment (R)” 0.537.
`CCACCCCUACCCAGCGAGAACAGUUUUUAAUGAAAACUGAGCUAGAUUGUCCAGUUCUGGUAAACAGUCUUCCAGUCAUCUCACAACCAUUAUUACAACCAUGUACAAAG`: “RBNS enrichment (R)” 0.269.
Under “RBNS enrichment (R)”, `CUUCUGUCAUCUAGACUGUGCAUCCCUGUAAUACCUGACUGAUCACAGUGUUAGUGCUGGUCAGAGAGACCUCAUCCUGCUCUUUUGUGAUGAACAUAUUCAUGACGCGU` is recorded as 0.271.
`CAAACCAAAUAACAUCUUUCAGUAAUUAUAGAAUGAUUUAUUUGGAAUAAAAUUUGUGCUUAUGAAUUAUAAAGGUCUAUAGCUUGGUGUACGGUCUUUCUACAGUAAGU`: “RBNS enrichment (R)” 0.723.
Under “RBNS enrichment (R)”, `CUUCUUGGGCCAGGUCUGUCCCAUGAGUCAAAUUUAGGAAAGCAAGGAUAGGUUUUGUCAUAGAUAUGGAUAGUUGGACAUACAAAAUAAAGACCUAGAAUCCAGUCAUA` is recorded as 0.471.
Under “RBNS enrichment (R)”, `UCCAUUUAUCCACAGGAAAGUGUUAUUUUUCAAGGAAGGUUCAUGUAGAGAAAAGCACACUUGUAGGAUAAGUGAAAUGGAUACUACAUCUUUAAACAGUAUUUCAUUGC` is recorded as 0.551.
`GUGAAAUGCUUAGCUGGUUAGCAUCCGAGGUGAGGGUCUGAAGGAGUCUCUCUGUCUUCUUCUUUCUUUGCCUGAUGCACAUCAAGGUAGAGUGCAUUCCGGUGUGGGUG`: “RBNS enrichment (R)” 0.391.
For `GGGUCCCAAAUAUGAUAAUCACGUGGCACCUCUGGCAUUGCUCCCUUGGGCUGUCACUGGGGACUGGCAGUGCCUAGUGAGAGAGAGCAUCAUACUUCAUGAUGUCAGAG`, “RBNS enrichment (R)” read 0.492.

Block 2
Target: RING finger protein unkempt homolog, zinc fingers 1-6, GST-SBP tag (UNK, Homo sapiens, UniProt Q9C0B0, residues 30-357)
Method: RNA Bind-n-Seq
Molecule type: RNA
Matrix: in vitro
Tested at: not given
Notes: RNA with constant flanks, human and mouse sites, ends assumed
Reference: input RNA pool
Direction: higher = stronger binding
All sequences stand within: GGGAGUUCUACAGUCCGACGAUC … CAACAGAGGAUUGAGCAUCA
Construct (chain): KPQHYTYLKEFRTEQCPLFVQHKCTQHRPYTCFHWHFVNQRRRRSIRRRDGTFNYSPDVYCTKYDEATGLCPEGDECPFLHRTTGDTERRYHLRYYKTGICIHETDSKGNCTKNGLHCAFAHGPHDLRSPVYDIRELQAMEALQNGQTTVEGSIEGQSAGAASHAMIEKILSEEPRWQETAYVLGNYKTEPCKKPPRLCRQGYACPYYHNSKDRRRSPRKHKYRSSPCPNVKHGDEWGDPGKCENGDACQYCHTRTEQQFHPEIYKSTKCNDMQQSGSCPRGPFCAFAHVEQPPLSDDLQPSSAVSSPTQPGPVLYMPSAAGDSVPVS
`AUGCCAAGUGUUUCUAAGCUUUAUUCUGAGAACUGACUUUCAACCUUCAGGUAUGCAUUUAUAGAAUUUGCUUCAUUUGAAGAUGCUAAAGAAGCUUUAAAUUCCUGUAAUAAAAUGGAA` has a bound/input enrichment of 0.0873 ratio.
For `GGGAGCAUUGGUGAAAUAGAAUCCUGCAAACUUGUGAGAGACAAAAUUACAGGACAGAGUUUAGGGUAUGGAUUUGUUAACUAUAUUGAUCCAAAGGAUGCAGAGAAAGCCAUCAACACU`, the bound/input enrichment was 0.423 ratio.
With `GUGUCCACCUCAGCAGGGGGAAUAAUGACUGCACCAGCCAUUGACAUAUUUUCUACCCCUAGUUCUUCUAACAGCACAUCUAAGCUGCCAAAUGACCUGCUUGACUUGCAGCAGCCAACC` the bound/input enrichment was 0.29 ratio.
`UUCUGGGGAUAUAAUUCAGGUUGAUGAAAAAACUGUAGGAGAGCCUGGUUGGCUUUAUGGUAGUUUUCAGGGAAAGUUUGGCUGGUUCCCGUGCAACUAUGUAGAAAAAGUGCUGUCAAG` has a bound/input enrichment of 0.548 ratio.
The bound/input enrichment of `GUCUCAGAAGCUGCUGCUGACAGCCUCCAUGAUUUUAGAAUUAAUAUUUUGUCGAUUGAUGAUCUGGUUCUGGCUGACGGAGACAAAUCAGAUGGGGACCAGAGAGAGGAAGACUGUGUA` is reported as 3.04 ratio.
`CUCACCUAUGAAGUCAUUGGAUUUGCCAAUGUCGUAGUCCCAGACUGUGACCUCCAGGGUCUUAGUGGCCAGAGUGGAGAGUUCAAUCUCAUAGAAGAAUUCCUGAGAACAAAGGCAGGC` has a bound/input enrichment of 0.233 ratio.
`GUAGAAUUCCAGAAGACGGUGAAGCUUAUGUACUACCUAUGGAUGUUCCAUGCAGUGACCCUGUUUCUGAACAUCUUCGGAUGCUUGGCCUGGUUUUGUGUUGAUUCCUCGAGAGCAGUC` has a bound/input enrichment of 0.0873 ratio.
`CUUUGUGUUCAUGGUGGACUUUCACCAGAAAUACACACACUGGAUGAUAUUAGGAGAUUAGAUAGAUUCAAAGAGCCACCUGCAUUUGGACCAAUGUGUGACUUGUUAUGGUCCGAUCCU` has a bound/input enrichment of 9.18 ratio.
`GCAAGGCAGAGCCACCAGAAGAGGGCACCUAGUUUCCAUGACAAAUAUGGGAAUGCUAUAUUAGCAGGUGGAGCCAUCUUCUGUGUUUCUACAUGGACAUAUACAGCCACACAAAUUGGA` has a bound/input enrichment of 0.309 ratio.
`GUCAGGGAACCGGAGCCGGGCCGCCGCGCUGUGGAGAAGCUGCGUCGGGGCGCACAGGUUAUUAGAAAUGGCUACUCCACAGUCAGUUUUCGUCUUUGCAAUCUGCAUUUUAAUGAUAAC` gave a bound/input enrichment of 0.541 ratio.
For `UUGCCGAGUGCAGUCCCCGCAGCCUUCGACGACGCAGUGGAAGAACGAGUGAUCAACGAGGAAUACAAAAUAUGGAAAAAGAACACCCCUUUUCUUUAUGAUUUGGUGAUGACCCAUGCU`, the bound/input enrichment was 0.195 ratio.

Block 3
Target: CCNA1, cyclin fold, Cln2 fusion (human)
Method: yeast growth competition, sequencing
Matrix: yeast
Notes: weak parent motif
Reference: not given
Direction: higher = stronger binding
Parent: ORC1 docking peptide (human); PRARKRLELGNLG
Under “normalised enrichment score”, `L7S` is recorded as 0.104.
`R6M`: “normalised enrichment score” 0.39.
For `E8H`, “normalised enrichment score” read -0.0999.
`R2I`: “normalised enrichment score” 0.633.
For `G10C`, “normalised enrichment score” read 0.33.
For `L7A`, “normalised enrichment score” read 0.431.
For `G10R`, “normalised enrichment score” read 0.199.
For `R2Q`, “normalised enrichment score” read 0.342.
`G13F`: “normalised enrichment score” 0.0266.
Under “normalised enrichment score”, `R6W` is recorded as 0.0667.
For `G10S`, “normalised enrichment score” read 0.327.
`A3G`: “normalised enrichment score” 0.281.
`L9R` — result for “normalised enrichment score”: 0.622.
`E8N` — result for “normalised enrichment score”: 0.486.
Under “normalised enrichment score”, `L9Y` is recorded as 0.668.
`R4Y` — result for “normalised enrichment score”: 0.436.

Single results of other studies
The fold induction of `PhoQ, residues 284 288 289 292 302 303 SLANKL` is reported as 8.13 (PhoP, residues 12 14 15 18 19 QWHVF (Escherichia coli, UniProt P23836); Sort-seq, refers to: YFP reporter; E. coli; PhoQ-PhoP variant library, with: 10 µM Mg2+; reference: high Mg2+ state, higher = stronger signaling).

Repeated from above (block 3):
`A3G`: “normalised enrichment score” 0.281.
Under “normalised enrichment score”, `L9Y` is recorded as 0.668.
For `L7A`, “normalised enrichment score” read 0.431.
`G13F`: “normalised enrichment score” 0.0266.
